Experimental data gathered from unrelated publications.
A part holds a random share of what one study measured.

Series 1
Target: UBE2R2 UBC core domain (UniProt Q712K3)
Technique: yeast two-hybrid
Medium: yeast
Setting: mostly zero background
Relative to: not given
Direction: higher = stronger interaction
B1: TRIML1 RING domain (UniProt Q8N9V2); chain LMENLREELTCFICLDYFSSPVTTECGHSFCLVCLLRSWEEHNTPLSCPECWRTLEGPHFQS
B2: TRIM4 RING domain (UniProt Q9C037); chain EAEDIQEELTCPICLDYFQDPVSIECGHNFCRGCLHRNWAPGGGPFPCPECRHPSAPAALRP
B3: VPS41 RING domain (UniProt P49754); chain KGVLVDEENICESCLSPILPSDAAKPFSVVVFHCRHMFHKECLPMPSMNSAAQFCNICSAKNRGPGSAI
B4: SH3RF2 RING domain (UniProt Q8TEC5); chain DDLTLLDLLECPVCFEKLDVTAKVLPCQHTFCKPCLQRVFKAHKELRCPECRTPVFSNIEAL
B5: TRIM40 RING domain (UniProt Q6P9F5); chain LQKDNQEEGVCPICQESLKEAVSTNCGHLFCRVCLTQHVEKASASGVFCCPLCRKPCSEEVLG
B6: RNF208 RING domain (UniProt Q9H0X6); chain SSAAAGEPLECPTCGHSYNVTQRRPRVLSCLHSVCEQCLQILYESCPKYKFISCPTCRRETVLFTDYG
B7: RC3H1 RING domain (UniProt Q5TC82); chain QAPQWTDFLSCPICTQTFDETIRKPISLGCGHTVCKMCLNKLHRKACPFDQTTINTDIELL
B8: TRIM13 RING domain (UniProt O60858); chain MELLEEDLTCPICCSLFDDPRVLPCSHNFCKKCLEGILEGSVRNSLWRPAPFKCPTCRKETSATGINS
B9: TRIM24 RING domain (UniProt O15164); chain EAARLNLLDTCAVCHQNIQSRAPKLLPCLHSFCQRCLPAPQRYLMLPAPMLGSAETPPPVPAPGSPVSGSSPFATQVGVIRCPVCSQECAERHII
Residues (chain): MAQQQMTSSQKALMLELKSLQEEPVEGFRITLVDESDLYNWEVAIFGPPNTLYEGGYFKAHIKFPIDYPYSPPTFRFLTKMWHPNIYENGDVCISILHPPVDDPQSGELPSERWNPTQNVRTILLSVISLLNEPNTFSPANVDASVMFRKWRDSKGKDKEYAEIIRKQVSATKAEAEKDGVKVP
Sequence | lacZ reporter activity
B1 (TRIML1 RING domain) | 0
B2 (TRIM4 RING domain) | 0
B3 (VPS41 RING domain) | 0
B4 (SH3RF2 RING domain) | 0
B5 (TRIM40 RING domain) | 0
ASLPTSEEDLCPICYAHPISAVFQPCGHKSCKACINQHLMNNKDCFFCKTTIVSVEDWE (RNF123 RING domain (UniProt Q5XPI4)) | 0
PAELEVQASECVVCLEREAQMIFLNCGHVCCCQQCCQPLRTCPLCRQDIAQRLRIY (LRSAM1 RING domain (UniProt Q6UWE0)) | 0
B6 (RNF208 RING domain) | 0
B7 (RC3H1 RING domain) | 0
B8 (TRIM13 RING domain) | 0
B9 (TRIM24 RING domain) | 0

Series 2
Organism: Saccharomyces cerevisiae
Read-out: growth after mating arrest
Technique: competitive growth deep sequencing
Form: peptide
Setting: strain without Cln2 fusion
Direction: direction not given
Sequence | enrichment score
IQKKLRFEDTLEFVGF | -0.276
QDYERRLLRQIVIQNE | 0.595
ALLRRLQDVANDRGSH | 0.233
LKGRRLVFDN | 0.287
LAKRALKYTD | -0.0329
TSSAQRRLEIPSGGAD | 0.257
RSLKLDGLLEEN | 0.103
CFRCLLFSFSGRSGVE | 0.077
EPKTLFLGAGDFQF | 0.702
SDSTVTKLDFDLEP | 0.235
VLLKRLQDVVSERANH | -0.209
RVSGLLSWTLSRVLWL | -0.682

Series 3
Target: RNA binding protein fox-1 homolog 2, RRM domain, GST-SBP tag (RBFOX2, Homo sapiens, UniProt O43251-10, residues 100-194)
Technique: RNA Bind-n-Seq
Form: RNA
Medium: in vitro
Concentration: 365 nM
Setting: natural RNA segment, single round, ends assumed
Relative to: no-protein control
Direction: higher = stronger binding
Constant ends, left off below: GGGAGUUCUACAGUCCGACGAUC … UGGAAUUCUCGGGUGCCAA
Construct (chain): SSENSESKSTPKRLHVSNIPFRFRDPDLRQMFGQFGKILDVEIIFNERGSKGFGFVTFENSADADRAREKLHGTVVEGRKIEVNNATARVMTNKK
Sequence | RBNS enrichment (R)
CACCUUCAAAGUAACUCUUAGAAGAUGUGCUUGACUUGAUAGCUUACUUAAAUACACACUGCGAAGAGUGAAAAGCUUGGAAAAGCAGAGUUGGGAGGACCCCGAGGAAA | 0.347
UCUUUGGGCCUCAGUUUUAUCAUUUAUACAAGGAGGGCUUUUCUAGCUGUAACAAUCUGUGAGGAUUGAGAGGAUAGGCUGGUGCUUUGAAGAAAGGCCUUGUAAGUGAC | 0.561
CACACGGAAAGAGAUAAGAAAAGCAGAGAGAGUGGGGUCACCCCACCAACACAGGUUGCAGAGUGCUCAGUCCUGCUCUGCCUAGCUGGCCCCACCCCAGCUCUCUUUCU | 0.547
GGCCGCCAUUUUGGCAAGACAAUCUGAAUGUGCCUUCCUGGAGCUGUCGGCUGGAAUCCCUCAUGAGUCAAGUACUGUACCUCCCUGGCACAUGAAACUCUGGGAUCCAG | 0.342
AUCCUGUGAACUGAGAGCGAGGAGCAGUGUAGGAAAUUGCAAUGUGUGGUUCAUGCAUUGUCUUUGAUAUCCUAGACGGAGCUCAGCUUAGAACUUUCCAAGCGCCAGUG | 0.22
AAUUGCAUUCAUGGCUUCCACUUGUAAAUAUGCUAAGGGUAUUUUAAUAAAUCUUGGUUUCAUGUCCAUCUGGUGUGUGGUGGAGAUUUUUGUUUCAGUGGCCACUUGCU | 0.787
UUCAUGGGACUUUAAAAAGAAUAAGUAUUUGAGAAAAUAUCUGGUUCACUUACACUACAUUUACUGUAUUAUUCUUUUAUAGCAUUAGGUGCCUUGUAUUUUAAAUCUGU | 0.749
AGUGUUAGGACGGUUUGAGAGGGAAGGAGAGAGAGAAGAAAGACGAACCACUUGAGACUGAGACUGUCCCCUCCAGCUGUGCUGUACUUCCAGGUGCGCACUUUAAAGAA | 0.814

Series 4
Target: Ras GTPase-activating protein-binding protein 1, C-terminal RGG region (G3BP1, Homo sapiens, UniProt Q13283)
Sequence of UniProt Q13283 (whole entry, looked up): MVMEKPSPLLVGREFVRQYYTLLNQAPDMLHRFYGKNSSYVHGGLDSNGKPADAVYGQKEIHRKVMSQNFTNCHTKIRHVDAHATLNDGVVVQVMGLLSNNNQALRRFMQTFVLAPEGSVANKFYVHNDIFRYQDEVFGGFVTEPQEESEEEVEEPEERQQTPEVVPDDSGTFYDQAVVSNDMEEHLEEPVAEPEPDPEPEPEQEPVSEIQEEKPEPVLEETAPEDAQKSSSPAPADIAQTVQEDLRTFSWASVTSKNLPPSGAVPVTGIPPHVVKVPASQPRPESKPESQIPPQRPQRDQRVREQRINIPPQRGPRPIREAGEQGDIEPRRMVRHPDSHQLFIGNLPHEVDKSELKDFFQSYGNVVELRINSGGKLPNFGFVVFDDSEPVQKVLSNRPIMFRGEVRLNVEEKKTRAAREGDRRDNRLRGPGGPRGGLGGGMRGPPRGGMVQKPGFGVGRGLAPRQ
Technique: RNA Bind-n-Seq
Form: RNA
Medium: in vitro
Concentration: 1 µM
Setting: whole 134-nt RNA, ends assumed
Together with: 150 mM KCl
Relative to: input library
Direction: higher = stronger binding
Constant ends, left off below: GGGAGUUCUACAGUCCGACGAUC … UGGAAUUCUCGGGUGUCAAGG
Sequence | log2 enrichment
UCCUGUGCUACACAUCGUAUGUACCGAAUCGGGGAAAAAGGGGAAAAAAAGGGGUGGGGAAAGUAUUAUGUUACGCCGUUCGGAUCUGCA | 1.48
ACCAUGCAGGUGGGCAUCUUUGGGAAGUGAGGCAAGGGGGGGAUAGGGAGGGGGGUAACACUUUGGGAACAGGUGGUCCCAGGUCGUUUC | -1.21
AGUCCUGUGCUACACAUCGUAUGUACCGAAUCGGGGUGGGGUUUUUGGGGAAAGGGGAAAGUAUUAUGUUACGCCGUUCGGAUCUGCACU | 1.44
ACCAUGCAGGUGGGCAUCUUUGGGAAGUGGGGCCAGGGGGGGAUAGGGAGGGGGGUAACACUUUGGGAACAGGUGGUCCCAGGUCGUUUC | -1.28
UAACUUUAGAGGAGGAUCUGAUGGAUAUGGCAGUGGACGUGGAUUUGGGGUUGGCUAUAAUGGGUAUGGAGGAGGACCUGGAGGUGGCAA | -1.19
UCCUGUGCUACACAUCGUAUGUACCGAAUCGGGUUUUUUUGGGAAAAAAAGGGAAAGGGAAAGUAUUAUGUUACGCCGUUCGGAUCUGCA | -0.98
UGUAACCUGGGGAUUCUCUCAACUCUCUUGUCCCACACAGACUUCUAUGAGGAAAUCCAGGAGUUUGUGAAAGAUGUCUUUUCACCUAUA | -0.266
CUCAAGUCCUGUGCUACACAUCGUAUGUACCGAAUCGGUUUGGAAAAAGGUGGAAAGUAUUAUGUUACGCCGUUCGGAUCUGCACUUCCA | -0.966
UCCUGUGCUACACAUCGUAUGUACCGAAUCGGAAAAAAGGGAAAAAAGGGGAAAAAAGGAAAGUAUUAUGUUACGCCGUUCGGAUCUGCA | -1.63

Excerpt of the above (series 1):
Sequence | lacZ reporter activity
B3 (VPS41 RING domain) | 0
B9 (TRIM24 RING domain) | 0
PAELEVQASECVVCLEREAQMIFLNCGHVCCCQQCCQPLRTCPLCRQDIAQRLRIY (LRSAM1 RING domain (UniProt Q6UWE0)) | 0
B7 (RC3H1 RING domain) | 0
B5 (TRIM40 RING domain) | 0
ASLPTSEEDLCPICYAHPISAVFQPCGHKSCKACINQHLMNNKDCFFCKTTIVSVEDWE (RNF123 RING domain (UniProt Q5XPI4)) | 0
